Results collected from several papers.
Parts stem from different laboratories: compare values within a part only. Several values in a cell are separate wells, animals, samples, runs or records.

Series 1
Target: RNA binding protein fox-1 homolog 2, RRM domain, GST-SBP tag (RBFOX2, Homo sapiens, UniProt O43251-10, residues 100-194)
Technique: RNA Bind-n-Seq
Molecule type: RNA
Medium: in vitro
Concentration: 365 nM
Setting: natural RNA segment, single round, ends assumed
Baseline: no-protein control
Direction: higher = stronger binding
Constant ends, left off below: GGGAGUUCUACAGUCCGACGAUC … UGGAAUUCUCGGGUGCCAA
Target sequence (chain): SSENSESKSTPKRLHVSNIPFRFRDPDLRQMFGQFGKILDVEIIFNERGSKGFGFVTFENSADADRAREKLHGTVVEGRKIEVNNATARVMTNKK
Oligonucleotide | RBNS enrichment (R)
AAAUAUAUAAUGCAUUUGCAGUUGUACAUGGGCUAGUUAUAUCAUUUUAGGUGUAAUUAUGACCUGGCUAUUAUUUUCAUUUGGAAAUUAAGCAUGGCAUAAGAAGAUAU | 0.721
AAAAAAGGAAAAAAUCCCUAAACAUUCACCUUGACCUUAUUUAUGACUUUACGUGCAAAUGUUUUGACCAUAUUGAUCAUAUAUUUUGACAAAAUAUAUUUAUAACUACG | 0.397
AACUUGUGUUCCAGCUGAGGAGUGUCCCAGGUGUUAACGAGACUGAGGCCUAUUGCUGGAGUUCAGAUACUGCAGCUCCUCUUGUUUUUCUGCACUGUGUUUGCCAGCCC | 3.91
ACUAUGAACCUUCUAAACAGUACCAACACUGUCAUGUGACUAAUGCUGCCUCUAGACCUCGCCCACGUGGACAGACGCUUCCUGUCAUGGCUCUGCCUAGAGAUGUUCCU | 0.237
CUGUUUUUGUUGCUCAGUAAUUCAGGUGGAAAUAUAUAACGCAAGUGGGUAGAGCGUCUGCCAGACUCCUGGCCUGGUGUGCCUGGGUAGAAUUACACGAUAAGCAAUGG | 0.801
AAUACAAAAAUUAGCUGGGCAUGGUGGCAUGCGCCUGUAGUCUCAGCUACCUGGGAGGCUGAGGAAGGAGGAUCGCUUGAGCCCAGGAGGUGGAGGCUGCAGUGAGCCAA | 8.03
UUGGAAUGAAAAUACUUCUUGCACUUAAACACUGCACAUGCCGUACUUUGAGGUUAGUCUGAAUCUUGAACUUUAAUACCAAAUUAAUUUUGAAUGCUUUUGUUUCCUAA | 3.12
CAGCUUUAACUUGUAAGACAGCUAUGAGUCACUUUGAGAAUUCCAGAGGCCAUGUUGGGGGGACAGCCAUUGAGUUUAUUCCUUUACCUCAUGUGACCCCAGCAACUUUG | 0.667

Series 2
Cell line: HEK-293T/ACE2
Concentration: concentration not given
Time: 16 (unit not given)
Baseline: vehicle
SMILES | viability [%]
CC(=O)OCC(CCn1cnc2cnc(N)nc21)COC(C)=O | 97.5
CCOc1ccccc1OCCN[C@H](C)Cc1ccc(OC)c(S(N)(=O)=O)c1 | 83.6
CC(=O)OCC(=O)[C@H]1CC[C@H]2[C@@H]3CCC4=CC(=O)CC[C@]4(C)[C@H]3CC[C@]12C | 99.2
COCCOC(=O)C1=C(C)NC(C)=C(C(=O)OC(C)C)C1c1cccc([N+](=O)[O-])c1 (centres unmarked) | 105

Series 3
Target: Interferon regulatory factor 7, full length, phosphomimetic (IRF7, Homo sapiens, UniProt Q92985, residues 1-503, S471D/S472D/S475D/S476D/S477D/S483D/S484D/S487D)
UniProt Q92985, sequence (whole entry, unmodified, looked up): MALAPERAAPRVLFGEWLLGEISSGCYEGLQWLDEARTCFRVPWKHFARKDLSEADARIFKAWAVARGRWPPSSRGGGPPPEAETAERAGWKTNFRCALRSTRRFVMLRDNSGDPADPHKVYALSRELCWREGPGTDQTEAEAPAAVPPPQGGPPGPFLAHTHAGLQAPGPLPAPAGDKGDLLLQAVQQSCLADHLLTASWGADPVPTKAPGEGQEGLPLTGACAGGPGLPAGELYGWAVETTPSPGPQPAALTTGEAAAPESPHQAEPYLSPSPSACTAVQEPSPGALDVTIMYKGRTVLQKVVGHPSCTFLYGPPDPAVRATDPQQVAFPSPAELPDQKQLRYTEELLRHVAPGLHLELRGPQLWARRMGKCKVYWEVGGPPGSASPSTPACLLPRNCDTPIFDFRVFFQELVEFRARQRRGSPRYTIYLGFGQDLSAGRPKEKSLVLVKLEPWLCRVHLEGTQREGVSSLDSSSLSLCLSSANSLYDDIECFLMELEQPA
Technique: protein-binding microarray
Molecule type: double-stranded DNA, one strand shown
Medium: in vitro
Concentration: 2200 nM top
Setting: 60-bp whole probe
With: salmon DNA 0.4 mg/ml
Baseline: random background probes
Direction: higher = stronger binding
Constant ends, left off below: GCCTAGCAC … GTCTTGATTCGCTTGACGCTGCTG
Oligonucleotide | fitted relative affinity [z-score]
TGGAATTTCCCTCTCCCCTCGTGCTAG | 1.23
GACGGAATCGGGTATCGGGACGTGCTA | -0.0423
TTAGATTTCGGTTCCGGTTAGTGCTAG | 6.9
GACGATATCAGTTTCGAAACGTGCTAG | 3.84
TTATGTATCCTTATCCTTTAGTGCTAG | 1.86
TTCTCTAACCTCTCTAATAAAGTGCTA | 0.767
ACCCATTGAGATTTCCATTAGTGCTAG | 1.09
TTAGGACTGGGACTTGGTTAGTGCTAG | -0.504

Series 4
Target: Replicase polyprotein 1ab, nsp13 helicase (rep, Severe acute respiratory syndrome coronavirus 2, UniProt P0DTD1)
Mode: inhibitor
Concentration: 20 µM
SMILES | inhibition [%]
FC(F)c1nc2ccccc2n1-c1nc(N2CCOCC2)nc(N2CCOCC2)n1 | 7.82
C=C(C)[C@@H]1[C@H]2OC(=O)[C@@H]1[C@]1(O)C[C@H]3O[C@]34C(=O)O[C@H]2[C@]14C | 7.25
CNc1ncnc2c1ncn2[C@@H]1O[C@H](CO)[C@@H](O)[C@H]1O | 4.44
CC(C)(C)C(=O)OCOC(=O)[C@@H]1N2C(=O)[C@@H](/N=C/N3CCCCCC3)[C@H]2SC1(C)C | -7.33
CNC(=O)[C@H]1O[C@@H](n2cnc3c(NCc4cccc(I)c4)ncnc32)[C@H](O)[C@@H]1O | 0.88
O[C@H](CNC[C@@H](O)[C@H]1CCc2cc(F)ccc2O1)[C@@H]1CCc2cc(F)ccc2O1 | 7.86
CCn1cc(-c2cccc(C(F)(F)F)c2)c2sc(C(=N)NC3CCS(=O)(=O)CC3)cc2c1=O | 0.76
Cc1cc(C)n(-c2cccc([C@H](CC(=O)O)CN3CC[C@@H](CCc4ccc5c(n4)NCCC5)C3)c2)n1 | 3.76
CN1CCN(c2cccc3[nH]c(=O)oc23)CC1 | 12.7
CCN(CC)C(=O)Nc1ccc(OCC(O)CNC(C)(C)C)c(C(C)=O)c1 (centres unmarked) | 6.43
C[C@]12CC[C@H](O)C[C@H]1CC[C@@H]1[C@@H]2C[C@@H](O)[C@]2(C)[C@@H](C3=CC(=O)OC3)CC[C@]12O | 3.37
O=c1[nH]nc2c3c(cccc13)N=C(CN1Cc3ccccc3C1)N2 | 1.78
Cc1oc2ccccc2c1CNC(=O)NCc1cccs1 | 6.81
CN1c2c(oc(=O)n(-c3ccccn3)c2=O)-c2ccccc2S1(=O)=O | 2.71
CCCCCCCCCCCCCC[C@@H](O)[C@@H](O)[C@@H](N)CO | -2.85
CO[C@H]1/C=C/O[C@@]2(C)Oc3c(C)c(O)c4c(O)c(c(/C=N/N5CCN(C6CCCC6)CC5)c(O)c4c3C2=O)NC(=O)/C(C)=C\C=C\[C@H](C)[C@H](O)[C@@H](C)[C@@H](O)[C@@H](C)[C@H](OC(C)=O)[C@@H]1C | 8.04
O=C(c1ccc(F)c(F)c1Nc1ccc(I)cc1F)N1CC(O)([C@@H]2CCCCN2)C1 | 12
CCCn1c(=O)c2[nH]cnc2n(-c2ccc(Cl)cc2)c1=O | 5.12
CC(C(=O)O)c1ccc2c(c1)Cc1ccccc1-2 (centres unmarked) | 6.43
CC(C)CCNC(=O)[C@H](CC(C)C)NC(=O)[C@H]1O[C@@H]1C(=O)O | 0.37
CN1CCN(CCOc2cc(OC3CCOCC3)c3c(Nc4c(Cl)ccc5c4OCO5)ncnc3c2)CC1 | 3.98
CC(C)=CCC[C@](C)(O)[C@H]1CC[C@]2(C)[C@@H]1[C@H](O)C[C@@H]1[C@@]3(C)CC[C@H](O)C(C)(C)[C@@H]3[C@@H](O)C[C@]12C | 2.94
N#Cc1nn(-c2c(Cl)cc(C(F)(F)F)cc2Cl)c(N)c1[S+]([O-])C(F)(F)F (centres unmarked) | 2.45
C=C(c1ccccc1OCc1cccc(Cl)c1)n1ccnc1 | -1.07
O=C(O)c1cc(O)c2c3nc4ccccc4oc-3cc(=O)c2n1 | 22.8

Series 5
Organism: SARS-CoV-2
Read-out: cytopathic effect
Cells: Vero E6
Concentration: 10 µM
SMILES | inhibition
O=C1C(Cl)=C(N2CCOCC2)C(=O)N1c1ccc(Cl)c(Cl)c1 | -8% and 1.7%
C=CCN1CCc2cc(O)c(O)cc2C(c2ccccc2)C1 (centres unmarked) | -1.9%
O=C(O)C(O)Cc1ccc(O)c(O)c1 (centres unmarked) | -1.5%
O=C(c1cc(O)c(O)c(O)c1)c1ccc(O)c(O)c1O | 3.7%
CCN1CCN(C(c2ccc(C(F)(F)F)cc2)c2ccc3cccnc3c2O)CC1 (centres unmarked) | -10.5%

For quick reference, copied from above (series 3):
Oligonucleotide | fitted relative affinity [z-score]
GACGATATCAGTTTCGAAACGTGCTAG | 3.84
TTATGTATCCTTATCCTTTAGTGCTAG | 1.86
TTCTCTAACCTCTCTAATAAAGTGCTA | 0.767
ACCCATTGAGATTTCCATTAGTGCTAG | 1.09
TTAGGACTGGGACTTGGTTAGTGCTAG | -0.504
